Measured values from different studies.
Every numbered part comes from another study and shows a few of its results, in no order. Changes are numbered by the printed parent chain.

Series 1
Target: RNA binding protein fox-1 homolog 2, RRM domain, GST-SBP tag (RBFOX2, Homo sapiens, UniProt O43251-10, residues 100-194)
Technique: RNA Bind-n-Seq
Molecule type: RNA
Sample: in vitro
Concentration: 365 nM
Setting: natural RNA segment, single round, ends assumed
Reference: no-protein control
Direction: higher = stronger binding
All sequences stand within: GGGAGUUCUACAGUCCGACGAUC … UGGAAUUCUCGGGUGCCAA
Target sequence (chain): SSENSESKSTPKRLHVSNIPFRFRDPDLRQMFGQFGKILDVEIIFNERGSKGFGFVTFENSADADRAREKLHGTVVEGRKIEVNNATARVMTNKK
Sequence	RBNS enrichment (R)
UACAUACUUAAAAGUUUACCAAAUGUUAACCAGAUUUUUGAAACCUCCCCCCCCCCCUAUUUAUUUAUUUUUUAUGUUGGAAAUACCCGAAUGAUGUUUGGUAAUUGUAG	2.37
UUUGAGAAUUUUUUUUGUACAGCAUUCAUGUGUGAUAUUUUCCAGAUUUGUUGGAUCUAUUUGGUUUAAAAAGUAUUCUAUCUUAAGGCCAACUAAUAUAAAAUACCAUU	0.837
AAAGUACUACUGAAAAGGAACUAGGAAGUUUGGCCAAUUAAAAAAAAAAAGUAAAAUAAGUUAUAGUGGUCAGGGAAUCUCUUGACGAAAGCUAACUCUUAUUUUUCAGG	0.354
GGCUCGGCGUGGAUGGCAGCCUCAGGACACACACCCCUGCCUCAAGGUGCUGAGCCCCCGCCUUGCACUGCGCCUGCCCCACGGUGUCCCCGCCGGGAAGCAGCCCCGGC	0.92
UCAAGUGUCCCCACAGUCCUAAGCGGACAUGUUUGUUAUGUUGUAAAUUUUAUUUGGUUUGUACUCAAUUCAAUUUCAAAAUUGCUAAAAUGUGUUUGAGCUUUAGACUA	0.412
GUUCCGGGUAGGCCUUGAUAUCACCUCUGGGACUGUGCCUUGCUCACCGAAACCCGCGCCCAGGAGUAUGGCUGAGGCCUUGCCCACCCACCUGCCUGGGAAGUGCAGAG	0.693
CAAAGCCUUUCGAGGUAGGAGAGACCAAGACCAGUGCACAGCUUUUUAACUCUUGUCUUCUGUGAGUUUUCCGUCCUCUGUAGUCACGUGCCUGCACACCGUUCUCUCCA	0.449
AGAGCAGGAUCAGAUUUCCACAUUGGACAUAAAUAGCAUAUUCAGCAAAAAGGUCUGAAAAGCAAGGGAAUACCAUUAUUUUCGGAUUAGCGGUUUAUUAAGCUCUUCUA	0.494
CUUACACAUUUUAUGUAAACUCUUUAAUGUCUUUAAUUUGGAUUUUUGUUUCUUAGAACUUUAACAUUUAUUUUAAUCCUGAAGACACUUUUUUGAUUGUGUUUCGUAAG	0.837
CAGGCAGUCAUGGGCCCUGAGGCCCCUCCUGCCUGGCCCUGCUCCCCAGUGGGGAGGUGACUGUGUUUCCCAGAGUGUGAGCCGCUCUCCUCCCCCUAAAAAGCUGACUC	0.314
AAAUGGCAACAAACUGCACAUGAUUUCACAAAUAUUAAAAAGUCUUUUAAAAAGUAUUGCCAAACAUUAAUGUUGAUUUCUAGUUAUUUAUUCUGGGAAUGUAUAGUAUU	0.867
UCAUUUAGGGAGGUGGAUAUUCUGAUGAAGAUCUUUAUCCUAAACCUUCCUACUAUCCUUGUCUUAUUCAUCAAGCAGAUAUUUUAGUCAAGAAUUCCAGAGAAGGCUGC	0.43

Series 2
Target: ABI1, truncated, D143A, DHFR fusion (Arabidopsis thaliana)
Technique: DHFR PCA, deep sequencing
Sample: yeast
Setting: methotrexate growth selection, single substitutions
With: (+)-ABA 0 µM
Reference: wild-type fitted maximum
Direction: higher = stronger binding
Starting sequence: PYL1, truncated, DHFR fusion (Arabidopsis thaliana); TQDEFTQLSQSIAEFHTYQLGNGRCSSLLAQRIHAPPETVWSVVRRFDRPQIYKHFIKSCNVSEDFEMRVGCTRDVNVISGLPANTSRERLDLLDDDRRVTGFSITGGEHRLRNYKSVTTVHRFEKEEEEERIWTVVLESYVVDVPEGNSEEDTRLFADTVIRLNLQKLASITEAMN; partner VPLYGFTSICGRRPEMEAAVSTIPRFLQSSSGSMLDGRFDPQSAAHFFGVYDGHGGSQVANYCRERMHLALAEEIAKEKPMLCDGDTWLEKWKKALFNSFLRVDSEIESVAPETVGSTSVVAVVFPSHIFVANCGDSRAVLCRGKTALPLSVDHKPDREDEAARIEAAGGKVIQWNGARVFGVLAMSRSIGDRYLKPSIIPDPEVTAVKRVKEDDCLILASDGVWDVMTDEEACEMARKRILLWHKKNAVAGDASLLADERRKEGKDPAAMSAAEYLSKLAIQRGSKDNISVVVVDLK
Variant	relative binding score
V145Y	-11.5%
D96T	-5.31%
V118R	36%
A84Q	22.4%
N177I	13.3%
G102V	1.28%
S104K	-2.77%
R98N	1.25%
R45A	15%
V76L	6.71%
R90L	1.16%
E151R	11.5%
V161P	4.02%
L138W	7.01%
E127P	36.7%
R111Q	8.26%
E174P	1.57%

Series 3
Target: RING finger protein unkempt homolog, zinc fingers 1-6, GST-SBP tag (UNK, Homo sapiens, UniProt Q9C0B0, residues 30-357)
UniProt Q9C0B0, sequence (30-357, looked up): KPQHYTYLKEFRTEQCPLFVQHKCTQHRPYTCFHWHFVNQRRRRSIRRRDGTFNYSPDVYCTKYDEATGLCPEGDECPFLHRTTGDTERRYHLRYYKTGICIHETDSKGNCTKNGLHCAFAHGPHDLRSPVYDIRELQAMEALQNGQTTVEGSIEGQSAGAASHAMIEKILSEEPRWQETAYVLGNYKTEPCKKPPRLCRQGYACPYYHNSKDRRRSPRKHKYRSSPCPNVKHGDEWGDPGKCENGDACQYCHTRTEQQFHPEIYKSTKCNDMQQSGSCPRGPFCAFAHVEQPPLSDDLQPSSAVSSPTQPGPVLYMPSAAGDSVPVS
Technique: RNA Bind-n-Seq
Molecule type: RNA
Sample: in vitro
Concentration: not given
Setting: RNA with constant flanks, ends assumed
Reference: input RNA pool
Direction: higher = stronger binding
All sequences stand within: GGGAGUUCUACAGUCCGACGAUC … CAACAGAGGAUUGAGCAUCA
Sequence	bound/input enrichment
UAAUAUGUUAGUAAGUUACAUUUUAAAUAAUGCUCAUGUGACAAUACUCCCAAUCAAUGGCUUACCGAAUUUAAAGAUCUGUAUAUUAGAUUUUGGCUUAAAGGCAUGAGAAGUAUAAGA	2.08 ratio
GAUCUAAAAAUGGGAAUGAAGUUUGUCAGUGAUGAACAUUAUGAUGAAAACGAAGAUGACUCCGUUUCACAUGUAGAUGGUUCCGUAAUUUCCAGGAGGGAGUGGUAUGUUUAGCAACCA	0.21 ratio
UUUCCACUUGAUGUCAACACGCAGAAGGGGGUGAAAGGGACGCGUGACAGAUUCAGAAAUCCGCACAUUUGUGAAUGCUCGAUGCCCUGUGAGCUUGAGAAGAGGGAUCCAGAGUGGUGA	0.102 ratio
CCUUAGGUAACCCUGGUCUGACUAACUAAAGACUUCCCCUCAUGUCACUCCUGGUGUAUACCGGUCACUGCCAAGAAGUUCUGCUCCAUCAUUGGCCUUGCCCUUCUCUAUGUCACCAAG	0.19 ratio
AAUCAGUAGAAUUACAUAAUACUAAAGUUGCAGUUGAAAGAAUAUCCAAGUAUGUGUUGGCCGUUACUAAAAGAAUUAUAGCUGUUAUUGCCUUGUAUUUAUAGCCCUUGUUUCAGGUUU	2.36 ratio
UAAAUAUUAUAUAUAUCAAAAGCCAAAAUCUUUAUUUUUAUGCAUUUAGAAUAUUUUAAACCGUUCUCAGAUAUUAAGAAGUUGUAUGAGUUGUAAGUAAUCUUGCCAAAGGUAAAGGGG	1.7 ratio
AUUACUCUAAUGGAGUACUAUUCCAAAGAAGCCCUAGGCGAUUCCAAGUCUAAGAAGUCAGCCGCUUAUAAUUACGCAUGCGUACUCACGCUGGUGGUGGCUCAGUCUUCCAGCGGUGUC	0.217 ratio
AUAUGCCUAUGGCUACUGGACACAUACCCAUAUAAUCCCCCUAUCUGUUUUGUUAAGCCUACCCGUUCAAUGACUAUUAAAACAGGAAAGCAUGUUGAUGCAAAUGGGAAGAUAUAUCUU	0.123 ratio
CUGUCAUGACUGGGUAGUGUGGACUAUCCUGAGCCGUAACUGCUCUGAAUGUUCACUCGAUCCGCCAUGUAUAUUUUAAAUGCUAAUAUUUAAUGAAUGUAAGUUUCAACAUUGUUGCUA	0.243 ratio
UUCUUGAAGGCUAUUGGGUAUCUUAUUCCUCUUAUGGAUGCAGAAUAUGCCAACUACUAUACCCGAGAAGUGAUGUUAAUCCUUAUUCGAGAAUUCCAGUCUCCUGAUGAGGAAAUGAAA	0.14 ratio

Series 4
Target: Ras GTPase-activating protein-binding protein 1, RRM domain (G3BP1, Homo sapiens, UniProt Q13283)
UniProt Q13283, sequence (whole entry, looked up): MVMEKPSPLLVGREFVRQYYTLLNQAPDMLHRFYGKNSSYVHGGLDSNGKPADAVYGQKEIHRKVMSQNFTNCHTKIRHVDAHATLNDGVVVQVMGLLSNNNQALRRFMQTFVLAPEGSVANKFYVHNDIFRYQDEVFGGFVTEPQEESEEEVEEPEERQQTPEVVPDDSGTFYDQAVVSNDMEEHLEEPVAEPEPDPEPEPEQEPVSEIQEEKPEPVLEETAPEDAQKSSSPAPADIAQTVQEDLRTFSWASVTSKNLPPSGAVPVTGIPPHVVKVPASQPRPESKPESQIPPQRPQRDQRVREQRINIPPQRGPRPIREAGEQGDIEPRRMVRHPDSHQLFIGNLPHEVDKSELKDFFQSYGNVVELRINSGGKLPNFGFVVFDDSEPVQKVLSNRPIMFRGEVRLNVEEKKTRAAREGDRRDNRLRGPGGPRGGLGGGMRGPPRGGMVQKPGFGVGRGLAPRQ
Technique: RNA Bind-n-Seq
Molecule type: RNA
Sample: in vitro
Concentration: 1 µM
Setting: whole 134-nt RNA, ends assumed
With: 150 mM KCl
Reference: input library
Direction: higher = stronger binding
All sequences stand within: GGGAGUUCUACAGUCCGACGAUC … UGGAAUUCUCGGGUGUCAAGG
Sequence	log2 enrichment
CAAGUCCUGUGCUACACAUCGUAUGUACCGAAUCGGGUUUUUGGGUGGGAAAGGGAAAGUAUUAUGUUACGCCGUUCGGAUCUGCACUUC	0.725
AAGUCCUGUGCUACACAUCGUAUGUACCGAAUCGGCCCCGGGGCCCCGGGCCCCGGAAAGUAUUAUGUUACGCCGUUCGGAUCUGCACUU	-0.624
AAGUCCUGUGCUACACAUCGUAUGUACCGAAUCGGGAAAGGGAAAAAGGGAAAGGGAAAGUAUUAUGUUACGCCGUUCGGAUCUGCACUU	0.642
AGUCCUGUGCUACACAUCGUAUGUACCGAAUCGGUUUUGGGGUUUUGGGUUUUGGGGAAAGUAUUAUGUUACGCCGUUCGGAUCUGCACU	-0.106
AAGUCCUGUGCUACACAUCGUAUGUACCGAAUCAAAUUUAAACCCAAAUUUUUAAAAAAGUAUUAUGUUACGCCGUUCGGAUCUGCACUU	-0.131
UGGGAGGUGGAUUUUGUUUAUUUUUUUAGCUCAUUUCCAGGGGUGGGAAUUUUUUUUUAAUAUGUGUCAUGAAUAAAGUUGUUUUUGAAC	2.29
UCCUCAAGUCCUGUGCUACACAUCGUAUGUACCGAAUCGGGUGGGUGGGUGGAAAGUAUUAUGUUACGCCGUUCGGAUCUGCACUUCCAG	0.486
UAGGGUUCAGGAUAAGUUUGAGGUGCUGAAUUACACAAGCAUUCCUAUCUUUCUCCCGGAAGUCACCAUUGGAGCUCAUCAGACUGACCG	-0.168
CAAGUCCUGUGCUACACAUCGUAUGUACCGAAUCGGGAGGGUUUUUGGGUUUGGGAAAGUAUUAUGUUACGCCGUUCGGAUCUGCACUUC	0.539
UGGGAGGUGGAUUUUGUUUAUUUUUUUAGCUCAUUUCCAGGGGUGGGAAUUUUUUUUUAAUAUGUGUCAUGAAUAAAGUUGGUUUUGAAA	1.79
CAAGUCCUGUGCUACACAUCGUAUGUACCGAAUCGGUUUUUGGAAAAAAAGGAGGAAAGUAUUAUGUUACGCCGUUCGGAUCUGCACUUC	-0.201

Series 5
Target: CCNE1, cyclin fold, Cln2 fusion (human)
Technique: yeast growth competition, sequencing
Sample: yeast
Setting: weak parent motif
Reference: not given
Direction: higher = stronger binding
Starting sequence: RB1 docking peptide (human); PKPLKKLRFDIEG
Variant	normalised enrichment score
K6N	0.00949
L4C	0.603
R8L	-0.662
G13K	1.42
P1S	-0.314
K2I	0.724
F9I	-0.0397
E12W	1.38
P3N	-0.282
F9Y	-0.825
L4S	0.706
K6S	0.141
P3I	0.44
L7P	1.21
K5T	0.406

Repeated from above (series 5):
Variant	normalised enrichment score
L4S	0.706
L4C	0.603
P1S	-0.314
K5T	0.406
